Assay results pooled from the literature.
Protocols differ between the studies behind these lines. Values joined by “and” are separate records of one study, mostly repeats; a detail may differ. Numbers after ± are the reported error.

SMILES	target	assay	system	conditions	IC50
CCCCC[C@H](CC(=O)NO)C(=O)N[C@H](C(=O)N1CCC[C@H]1CO)C(C)C	aminopeptidase, human cell surface	enzyme activity, inhibitor	U-937, cell suspension	together with: Leu-AMC substrate	0.86 µM
Cc1cc(O)c2c(c1)C(=O)c1cc(O)cc(O)c1C2=O	class IIb HDAC	enzyme activity	bovine heart lysate		29 µM
C/C=C/c1ccc(OC)c(OC)c1	anti-eugenol monoclonal antibody mouse	antibody binding, indirect competitive ELISA		antibody 0.25 µg/mL, together with: coating antigen Eug-222-OVA 0.5 µg/mL	0.00044 µg/mL
O=C1NC(=N\[C@@H](Cc2c[nH]c3ccccc23)C(=O)O)/C(=C/c2ccc3c(c2)OCO3)S1	class I PI3K	enzyme activity, inhibitor			10 to 20 µM
N[C@@H](C(=O)O)[C@H](O)[C@@]1(C(=O)O)CC[C@H](C[C@H](NC(=O)c2cc(Cl)c(O)c(Cl)c2)C(=O)O)N1	rat cortex NMDA receptor	ion current, antagonist, two-electrode voltage clamp	Xenopus oocytes	pH 7.4, holding potential -80 mV, together with: NMDA 10 µM + glycine 100 µM	0.075 ± 0.009 µM
C=CCc1ccc(O)c(OC)c1	anti-eugenol monoclonal antibody mouse	antibody binding, indirect competitive ELISA		antibody 0.25 µg/mL, together with: coating antigen Eug-222-OVA 0.5 µg/mL	0.0382 µg/mL
NC[C@H]1O[C@H](O[C@H]2[C@H](O)[C@@H](O[C@H]3O[C@H](CO)[C@@H](O)[C@H](N)[C@H]3O)[C@H](N)C[C@@H]2N)[C@H](N)C[C@@H]1O	HIV-1 nucleocapsid protein-SL4 RNA complex	complex dissociation, ESI-FTMS		preformed complex ~3.5 µM	17.6 ± 1.3 µM
CCCOC(=O)c1cc(O)c(O)c(O)c1	lysine-containing peptide	peptide depletion, mass spectrometry		24 h, pH 10.2, room temperature, together with: lysine peptide 0.5 mM	1040 µM
O=C(O[C@@H]1Cc2c(O)cc(O)cc2O[C@@H]1c1cc(O)c(O)c(O)c1)c1cc(O)c(O)c(O)c1	class IIa HDAC	enzyme activity	bovine heart lysate		90 µM
Cc1ccc(C(=O)NNC(=O)c2c(C)cccc2Cl)cc1C#Cc1cnc2ccccc2c1	BCR-ABL1	cell proliferation	BCR-ABL1-positive cells		0.167 µM
CC[C@H](CC[C@@H](C)[C@H]1CC[C@H]2[C@@H]3CC=C4C[C@@H](O)CC[C@]4(C)[C@H]3CC[C@]12C)C(C)C	arginine-methylglyoxal glycation	AGE formation, inhibitor			> 1300 µM
O=c1c(O)c(-c2cc(O)c(O)c(O)c2)oc2cc(O)cc(O)c12	class IIb HDAC	enzyme activity	bovine heart lysate		27 µM
O=C(O)c1nn(Cc2ccc(Cl)cc2Cl)c2ccccc12	mitochondrial respiration, rat	uncoupled succinate oxidation	rat liver mitochondria	30 °C, together with: rotenone	150 µM and ~150 µM
O=C(O)[C@H]1O[C@@H](Oc2cc3oc(-c4ccccc4)cc(=O)c3c(O)c2O)[C@H](O)[C@@H](O)[C@@H]1O	class IIb HDAC	enzyme activity	bovine heart lysate		84 µM
CCOC(=O)c1cccc(N)c1.CS(=O)(=O)O	anti-eugenol monoclonal antibody mouse	antibody binding, indirect competitive ELISA		antibody 0.25 µg/mL, together with: coating antigen Eug-222-OVA 0.5 µg/mL	> 10 µg/mL
O=C(O)/C=C/c1ccc(O)c(O)c1	class IIb HDAC	enzyme activity	bovine heart lysate		120 µM
CC(/C=C/C(=O)NO)=C\[C@@H](C)C(=O)c1ccc(N(C)C)cc1	HDAC class I/II	enzyme activity, inhibitor, HDAC-Glo I/II	HCT-116	6 h	0.22 µM

Excerpt of the above:
SMILES	target	assay	system	conditions	IC50
O=C(O)[C@H]1O[C@@H](Oc2cc3oc(-c4ccccc4)cc(=O)c3c(O)c2O)[C@H](O)[C@@H](O)[C@@H]1O	class IIb HDAC	enzyme activity	bovine heart lysate		84 µM
CCOC(=O)c1cccc(N)c1.CS(=O)(=O)O	anti-eugenol monoclonal antibody mouse	antibody binding, indirect competitive ELISA		antibody 0.25 µg/mL, together with: coating antigen Eug-222-OVA 0.5 µg/mL	> 10 µg/mL
